# Measurements collected from several papers.
# Each line is one published result; not all experiments were run side by side. ± marks the error that the study gave.
# PDE9A: High affinity cGMP-specific 3',5'-cyclic phosphodiesterase 9A (PDE9A, Homo sapiens, UniProt O76083)
# Sequence of UniProt O76083 (whole entry, looked up): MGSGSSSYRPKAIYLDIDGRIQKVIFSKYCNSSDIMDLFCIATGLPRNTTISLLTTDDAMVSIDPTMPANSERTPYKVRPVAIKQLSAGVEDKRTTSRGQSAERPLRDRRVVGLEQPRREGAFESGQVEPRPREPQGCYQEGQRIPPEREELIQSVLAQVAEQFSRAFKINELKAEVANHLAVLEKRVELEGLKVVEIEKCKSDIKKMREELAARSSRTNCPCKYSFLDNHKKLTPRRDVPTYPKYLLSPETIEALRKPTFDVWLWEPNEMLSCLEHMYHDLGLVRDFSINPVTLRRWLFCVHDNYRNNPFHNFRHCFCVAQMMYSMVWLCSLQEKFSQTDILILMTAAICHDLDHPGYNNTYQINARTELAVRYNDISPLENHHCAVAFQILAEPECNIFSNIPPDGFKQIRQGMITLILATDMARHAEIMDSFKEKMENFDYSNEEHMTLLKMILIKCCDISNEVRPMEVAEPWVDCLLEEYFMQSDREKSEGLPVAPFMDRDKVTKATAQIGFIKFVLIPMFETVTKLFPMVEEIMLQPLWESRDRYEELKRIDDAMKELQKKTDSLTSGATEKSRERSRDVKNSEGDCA
# IDO1: Indoleamine 2,3-dioxygenase 1 (IDO1, Homo sapiens, UniProt P14902)
# PIK3CA: Phosphatidylinositol 4,5-bisphosphate 3-kinase catalytic subunit alpha isoform (PIK3CA, Homo sapiens, UniProt P42336)
# Sequence of UniProt P42336 (whole entry, looked up): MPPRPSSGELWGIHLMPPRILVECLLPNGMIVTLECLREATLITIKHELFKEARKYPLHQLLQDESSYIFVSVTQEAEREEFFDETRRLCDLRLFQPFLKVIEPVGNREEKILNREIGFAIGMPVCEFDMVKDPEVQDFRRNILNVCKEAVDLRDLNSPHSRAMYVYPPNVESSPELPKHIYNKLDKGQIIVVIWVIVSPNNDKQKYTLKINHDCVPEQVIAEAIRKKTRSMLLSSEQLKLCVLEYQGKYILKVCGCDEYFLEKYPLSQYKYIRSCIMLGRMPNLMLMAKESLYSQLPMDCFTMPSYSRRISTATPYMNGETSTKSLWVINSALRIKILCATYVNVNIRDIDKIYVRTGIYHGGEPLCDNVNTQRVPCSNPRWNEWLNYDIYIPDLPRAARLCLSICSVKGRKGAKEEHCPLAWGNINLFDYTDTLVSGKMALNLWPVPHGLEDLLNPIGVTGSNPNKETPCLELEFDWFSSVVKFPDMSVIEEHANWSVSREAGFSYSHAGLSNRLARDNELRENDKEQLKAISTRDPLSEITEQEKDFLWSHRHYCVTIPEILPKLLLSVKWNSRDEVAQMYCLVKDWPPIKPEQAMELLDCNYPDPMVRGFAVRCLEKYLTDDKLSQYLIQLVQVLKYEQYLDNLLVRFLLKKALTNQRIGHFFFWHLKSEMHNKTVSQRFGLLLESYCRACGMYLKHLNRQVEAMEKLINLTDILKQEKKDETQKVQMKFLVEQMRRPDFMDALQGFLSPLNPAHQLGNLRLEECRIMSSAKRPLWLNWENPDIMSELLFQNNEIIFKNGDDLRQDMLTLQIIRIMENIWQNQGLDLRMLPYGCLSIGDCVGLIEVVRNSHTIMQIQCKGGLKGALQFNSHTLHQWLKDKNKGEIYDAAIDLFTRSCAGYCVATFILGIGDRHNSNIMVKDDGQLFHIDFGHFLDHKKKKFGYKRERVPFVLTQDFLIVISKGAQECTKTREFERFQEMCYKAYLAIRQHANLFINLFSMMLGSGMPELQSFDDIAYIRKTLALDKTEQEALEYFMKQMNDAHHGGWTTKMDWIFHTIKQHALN
# HDAC7: Histone deacetylase 7 (HDAC7, Homo sapiens, UniProt Q8WUI4)
# Sequence of UniProt Q8WUI4 (whole entry, looked up): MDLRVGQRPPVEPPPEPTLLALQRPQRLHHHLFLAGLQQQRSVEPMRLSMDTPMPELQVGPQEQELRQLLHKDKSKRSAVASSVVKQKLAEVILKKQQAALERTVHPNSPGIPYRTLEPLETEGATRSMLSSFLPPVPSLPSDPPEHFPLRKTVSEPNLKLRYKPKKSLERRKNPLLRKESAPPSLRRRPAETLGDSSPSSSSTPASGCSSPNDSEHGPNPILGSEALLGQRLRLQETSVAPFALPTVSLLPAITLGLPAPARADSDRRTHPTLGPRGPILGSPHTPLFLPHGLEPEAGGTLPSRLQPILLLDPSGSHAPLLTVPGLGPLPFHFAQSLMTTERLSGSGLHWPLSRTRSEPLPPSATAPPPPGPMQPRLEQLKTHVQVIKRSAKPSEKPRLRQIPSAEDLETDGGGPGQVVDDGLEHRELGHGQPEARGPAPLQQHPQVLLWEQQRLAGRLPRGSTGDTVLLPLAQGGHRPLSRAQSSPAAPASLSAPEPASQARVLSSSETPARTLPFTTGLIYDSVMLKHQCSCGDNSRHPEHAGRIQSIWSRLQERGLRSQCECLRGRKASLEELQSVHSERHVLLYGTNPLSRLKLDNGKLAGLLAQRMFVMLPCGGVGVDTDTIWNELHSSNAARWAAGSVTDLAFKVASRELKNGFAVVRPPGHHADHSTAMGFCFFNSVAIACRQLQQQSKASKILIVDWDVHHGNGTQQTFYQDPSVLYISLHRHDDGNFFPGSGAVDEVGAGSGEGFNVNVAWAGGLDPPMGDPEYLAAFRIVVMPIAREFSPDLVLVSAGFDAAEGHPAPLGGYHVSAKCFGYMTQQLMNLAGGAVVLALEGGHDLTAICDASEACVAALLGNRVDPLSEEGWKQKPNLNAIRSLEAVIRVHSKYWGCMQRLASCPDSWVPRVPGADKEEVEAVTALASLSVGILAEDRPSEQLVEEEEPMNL
# Gria2/Glutamate receptor 3: Gria2/Glutamate receptor 3 (Rattus norvegicus, UniProt P19491+P19492)
# Sequence of UniProt P19492 (whole entry, looked up): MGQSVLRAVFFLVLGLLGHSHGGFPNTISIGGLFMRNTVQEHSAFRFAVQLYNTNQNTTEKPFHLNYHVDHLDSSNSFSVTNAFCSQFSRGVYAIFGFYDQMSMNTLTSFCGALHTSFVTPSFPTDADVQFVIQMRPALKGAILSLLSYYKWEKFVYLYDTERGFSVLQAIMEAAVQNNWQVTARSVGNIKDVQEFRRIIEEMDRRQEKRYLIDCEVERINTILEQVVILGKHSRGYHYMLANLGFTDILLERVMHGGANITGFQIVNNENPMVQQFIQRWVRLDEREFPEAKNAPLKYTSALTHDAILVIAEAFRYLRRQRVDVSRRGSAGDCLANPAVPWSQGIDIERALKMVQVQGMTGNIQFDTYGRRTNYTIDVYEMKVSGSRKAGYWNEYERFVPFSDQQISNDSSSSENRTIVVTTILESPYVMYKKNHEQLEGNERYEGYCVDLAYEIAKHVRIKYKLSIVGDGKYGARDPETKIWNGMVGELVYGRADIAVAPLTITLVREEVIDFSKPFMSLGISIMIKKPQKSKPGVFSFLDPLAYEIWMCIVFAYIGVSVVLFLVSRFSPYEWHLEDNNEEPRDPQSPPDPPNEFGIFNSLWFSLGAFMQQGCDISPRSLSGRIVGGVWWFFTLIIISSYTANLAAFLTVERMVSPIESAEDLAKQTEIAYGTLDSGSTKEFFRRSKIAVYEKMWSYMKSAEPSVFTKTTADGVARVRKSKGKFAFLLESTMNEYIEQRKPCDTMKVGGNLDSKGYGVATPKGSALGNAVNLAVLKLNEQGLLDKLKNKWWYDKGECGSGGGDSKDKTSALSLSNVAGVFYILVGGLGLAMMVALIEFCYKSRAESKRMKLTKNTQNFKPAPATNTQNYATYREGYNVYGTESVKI
# Sequence of UniProt P19491 (whole entry, looked up): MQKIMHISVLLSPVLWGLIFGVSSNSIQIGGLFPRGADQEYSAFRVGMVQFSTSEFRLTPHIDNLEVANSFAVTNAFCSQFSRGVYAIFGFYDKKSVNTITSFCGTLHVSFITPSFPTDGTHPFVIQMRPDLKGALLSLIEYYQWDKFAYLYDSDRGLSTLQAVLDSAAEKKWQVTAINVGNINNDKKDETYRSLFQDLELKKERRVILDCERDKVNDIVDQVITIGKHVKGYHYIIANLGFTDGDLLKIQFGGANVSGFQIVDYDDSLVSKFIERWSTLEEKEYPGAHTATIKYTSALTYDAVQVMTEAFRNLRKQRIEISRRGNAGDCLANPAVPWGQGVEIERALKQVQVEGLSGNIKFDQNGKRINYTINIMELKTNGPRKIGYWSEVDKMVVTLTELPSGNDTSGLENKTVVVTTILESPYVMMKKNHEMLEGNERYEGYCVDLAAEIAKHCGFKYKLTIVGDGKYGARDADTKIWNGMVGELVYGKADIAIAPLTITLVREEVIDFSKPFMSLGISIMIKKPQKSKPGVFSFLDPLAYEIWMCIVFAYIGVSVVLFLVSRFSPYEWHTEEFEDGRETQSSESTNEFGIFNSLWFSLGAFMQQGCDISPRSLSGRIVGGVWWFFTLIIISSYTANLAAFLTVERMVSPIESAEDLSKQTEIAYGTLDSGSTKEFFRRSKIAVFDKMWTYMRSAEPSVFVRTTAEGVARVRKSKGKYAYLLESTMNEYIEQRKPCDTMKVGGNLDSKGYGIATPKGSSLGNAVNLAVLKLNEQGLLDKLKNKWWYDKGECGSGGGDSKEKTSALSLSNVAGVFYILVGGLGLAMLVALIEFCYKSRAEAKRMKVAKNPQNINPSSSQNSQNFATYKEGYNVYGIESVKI
# 60 kDa heat shock protein, mitochondrial with HSP10: 60 kDa heat shock protein, mitochondrial, with HSP10 (Homo sapiens, UniProt P10809)
# Sequence of UniProt P10809 (whole entry, looked up): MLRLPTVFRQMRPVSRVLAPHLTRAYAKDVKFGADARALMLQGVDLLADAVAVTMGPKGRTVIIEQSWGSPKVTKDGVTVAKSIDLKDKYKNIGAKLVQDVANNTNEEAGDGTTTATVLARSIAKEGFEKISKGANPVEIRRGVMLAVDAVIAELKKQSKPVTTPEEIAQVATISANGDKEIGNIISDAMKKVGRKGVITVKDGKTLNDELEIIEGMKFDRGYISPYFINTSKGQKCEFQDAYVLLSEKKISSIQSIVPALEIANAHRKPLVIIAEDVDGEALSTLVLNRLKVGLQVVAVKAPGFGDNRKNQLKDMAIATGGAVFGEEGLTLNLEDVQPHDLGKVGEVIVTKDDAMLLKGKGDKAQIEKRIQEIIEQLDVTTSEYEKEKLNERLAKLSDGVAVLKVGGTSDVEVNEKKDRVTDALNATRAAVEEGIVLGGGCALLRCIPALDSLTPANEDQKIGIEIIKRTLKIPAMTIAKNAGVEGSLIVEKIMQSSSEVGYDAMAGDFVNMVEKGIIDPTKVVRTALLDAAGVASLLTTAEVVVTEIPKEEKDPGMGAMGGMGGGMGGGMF
SMILES,target or system,test,system,setting,endpoint,result
O=C(CCN(Cc1cccnc1)Cc1ccc(Cl)c(O)c1F)NO,"Meprin A subunit beta (MEP1B, Homo sapiens, UniProt Q16820)","enzyme activity, inhibitor",,,IC50,1.22 µM
C[C@@H](Nc1nc2c(cnn2C(C)(C)C)c(=O)n1Cc1cccc(F)c1)c1ccc(Cl)cc1,PDE9A,"enzyme activity, inhibitor",,,IC50,> 10 µM
COc1ccc(Nc2ncnc3ccc(-c4ccc(S(=O)(=O)N5CCOCC5)cc4)cc23)cc1Cl,Leishmania major,"intracellular amastigote growth, luciferase",RAW264.7 macrophages,,EC50,4.8 µM
Cc1oc(C)c(-c2ccc(N(CC(C)C)CC(C)C)c(NC(=O)Nc3cccc(B4OC(C)(C)C(C)(C)O4)c3)c2)c1C(=O)O,IDO1,"enzyme activity, inhibitor, recombinant enzyme, measured: kynurenine",,"20 min, 2% DMSO, added: L-tryptophan",IC50,39 ± 14 µM
O=C1Nc2ccccc2/C1=N/c1ccc(Cl)cc1Br,PIK3CA,"enzyme activity, inhibitor, ADP detection",,,IC50,0.0383 µM
CN1CC[C@@H](COc2cnc(C#N)cc2-c2ccn3nc(NC(=O)C4CC4)cc3c2)C1,"Serine/threonine-protein kinase SIK1 (SIK1, Homo sapiens, UniProt P57059)",ADP-Glo,,added: ATP 3 mM,IC50,0.128 µM
N[C@@H](CCC(=O)O)C(=O)N[C@@H](CCC(=O)O)C(=O)O,"DDB1/DCAF12 (Homo sapiens, UniProt Q16531+Q5T6F0)","binding, TR-FRET competition",,,IC50,384 µM
O=C(c1ccc(-c2ccc3ncnc(Nc4ccc(OCc5cccc(F)c5)c(Cl)c4)c3c2)cc1)N1CCOCC1,Leishmania major,"intracellular amastigote growth, luciferase",RAW264.7 macrophages,,EC50,1.4 µM
O=C(CCc1ccc(CNC(C(=O)OC2CCCC2)C2CCCCC2)cn1)NO (centres unmarked),HDAC7,"enzyme activity, inhibitor",,,IC50,> 10 µM
COC(=O)Cc1cc2c(cc1C(=O)c1ccccc1)OCO2,Gria2/Glutamate receptor 3,"ion current, patch clamp",,,IC50,6.12 µM
CC(C)C[C@@H](NC(=O)C(=O)O)C(=O)O,"Lysine-specific demethylase 4E (KDM4E, Homo sapiens, UniProt B2RXH2)","enzyme activity, inhibitor",,,IC50,> 1000 µM
COc1ccc(CNC(=O)c2cnc3c(c(C)nn3C)c2Cl)cc1,"60 kDa heat shock protein, mitochondrial with HSP10",HSP60/10-mediated MDH refolding,,"5 min, preincubation before ATP, added: denatured malate dehydrogenase",IC50,27 µM
CC1CCC2C(C)C(OC(=O)CCC(=O)OCCOC(=O)N3CCC(Nc4ccc(S(=O)(=O)NC(=O)c5ccc(N6CCN(CC7=C(c8ccc(Cl)cc8)CC(C)(C)CC7)CC6)cc5Oc5cnc6[nH]ccc6c5)cc4[N+](=O)[O-])CC3)OC3OC4(C)CCC1C32OO4 (centres unmarked),"Apoptosis regulator Bcl-2 (BCL2, Homo sapiens, UniProt P10415)","ligand displacement, FP",,,IC50,0.594 µM
Cc1ccc(-c2c3c([nH]c(=O)c2C#N)C(C(C)C)CNC3)cc1 (centres unmarked),PDE9A,"enzyme activity, inhibitor, radiometric",,,IC50,0.99 µM
O=C(O)Cc1cc2c(cc1C(=O)c1cccc(Br)c1)OCO2,Gria2/Glutamate receptor 3,"ion current, antagonist, patch clamp",,,IC50,4.57 µM
O=C(Cc1ccc(OCc2ccccc2)cc1)NC1(C(=O)O)CCN(C(=O)c2ccc(-c3cccc(Cl)c3)cc2)CC1,"Putative P2Y purinoceptor 10 (Homo sapiens, UniProt O00398)","TGF-alpha shedding, antagonist",,,IC50,> 10 µM
O=C(O)Cc1cc2c(cc1C(=O)c1ccc(Cl)cc1Cl)OCO2,Gria2/Glutamate receptor 3,"ion current, antagonist, patch clamp",,,IC50,3.98 µM
C#CCCn1nc(C)c2c(Cl)c(C(=O)NCC3CC(Br)=NO3)cnc21 (centres unmarked),"60 kDa heat shock protein, mitochondrial with HSP10",ATPase activity,,"30 min, added: HSP10",IC50,> 250 µM
CCn1nc(Cl)c2c1-c1cnc(N)c(c1)O[C@H](C)c1cc(F)ccc1-c1nn(C)cc1C2,"Ephrin type-A receptor 6 (EPHA6, Homo sapiens, UniProt Q9UF33)","enzyme activity, inhibitor, radiometric",,,IC50,0.115 µM
Fc1ccc(Nc2nc(NC3CCCCC3)c3cc(Br)ccc3n2)cc1F,"Beta-2 adrenergic receptor (ADRB2, Homo sapiens, UniProt P07550, L155C)","β-arrestin2 recruitment, antagonist, BRET",HEK293,"mutant L155C, added: isoprenaline 1 µM",IC50,0.2 µM
COC(=O)c1ccc(OC)c(O)c1-c1c(C(=O)OC)ccc(OC)c1O,"Toll-like receptor 2 (TLR2, Homo sapiens, UniProt O60603)","reporter gene, inhibitor, SEAP reporter",HEK-Blue hTLR2,"24 h, added: Pam3CSK4 100 ng/mL",IC50,> 100 µM
Cn1c(=O)c(C(N)=O)c(N2CCC(Oc3ccc(OC(F)(F)F)cc3)CC2)c2ccccc21,"Diacylglycerol kinase zeta (DGKZ, Homo sapiens, UniProt Q13574)","lipid kinase activity, inhibitor, ADP-Glo",,,IC50,> 10000 µM
O=C(O)Cc1cc2c(cc1C(=O)c1ccccc1Br)OCO2,Gria2/Glutamate receptor 3,"ion current, patch clamp",,,IC50,4.62 µM
Cc1nn(-c2cccc(N)c2)c(=O)c2cnc(Nc3ccc(N4CCNCC4)cc3)nc12,"Protein kinase C delta type (PRKCD, Homo sapiens, UniProt Q05655)","enzyme activity, inhibitor",,,IC50,> 10 µM
COc1ccc(Nc2cc(NC3CC3)n3ncc(C#N)c3n2)cc1,"Casein kinase II subunit alpha (CSNK2A1, Homo sapiens, UniProt P68400)","target engagement in cells, BRET",,,IC50,2.2 µM
COC(=O)c1ccccc1CN1CCC(Nc2nc(NCc3cccc(OC)c3)nc3[nH]cnc23)CC1,"Inositol polyphosphate multikinase (IPMK, Homo sapiens, UniProt Q8NFU5)","enzyme activity, inhibitor",,,IC50,26 µM
O=C(CCNc1cccc2c1C(=O)N(C1CCC(=O)NC1=O)C2=O)NCCOCCOCCOCCN1CCC(CNC(=O)c2cccc(-c3noc(C(F)(F)F)n3)c2)(c2nc(-c3ccccc3)cs2)CC1 (centres unmarked),HDAC7,"enzyme activity, inhibitor",,,IC50,0.6 µM
CCN(CC)CC(=O)Nc1cccc(-n2cc(-c3ccc4ccc(-c5cn(-c6cccc(NC(=O)CN(CC)CC)c6)nn5)cc4c3)nn2)c1,"Mitogen-activated protein kinase 10 (MAPK10, Homo sapiens, UniProt P53779)","enzyme activity, inhibitor",,,IC50,> 10 µM
C#CCCn1nc(C)c2c(Cl)c(C(=O)NCC3CC(C)=NO3)cnc21 (centres unmarked),"60 kDa heat shock protein, mitochondrial (Homo sapiens, UniProt P10809)","ATPase activity, inhibitor",,,IC50,> 250 µM
O=C(CCNC(=O)CNC(=O)CC(c1ccccc1)(c1ccccc1)c1ccccc1)NC[C@@H]1CCCN(C[C@H]2C[C@H](F)C2)C1,"Muscarinic acetylcholine receptor M1 (CHRM1, Homo sapiens, UniProt P11229)","ligand displacement, radioligand",,cell membranes,IC50,> 30 µM
Cc1oc(C)c(-c2ccc(N(CC(C)C)CC(C)C)c(NC(=O)NC34CC5CC(CC(C5)C3)C4)c2)c1C(=O)O,IDO1,"enzyme activity, inhibitor, recombinant enzyme, measured: kynurenine",,"20 min, 2% DMSO, added: L-tryptophan",IC50,14 ± 3 µM
CNC(=O)c1ccc(-c2cc(Cl)cc(Cl)c2Cl)c(N)n1,"Sodium channel protein type 10 subunit alpha (SCN10A, Homo sapiens, UniProt Q9Y5Y9, G1406S)","ion current, inhibitor, patch clamp",,,IC50,27.7 µM
COC(=O)Cc1cc2c(cc1C(=O)c1ccccc1Br)OCO2,Gria2/Glutamate receptor 3,"ion current, patch clamp",,,IC50,5.5 µM
O=C1/C(=N\c2ccc(Cl)cc2Br)c2ccccc2N1Cc1ccccc1 (mixture of isomers),PIK3CA,"enzyme activity, inhibitor, ADP detection",,,IC50,0.133 µM
CC[C@H](C)[C@@H]1NC(=O)[C@H](Cc2ccccc2C(F)(F)F)NC(=O)CCSCc2cccc(n2)CSCCCNC(=O)[C@H](CCCCCC(=O)O)NC1=O,HDAC7,"enzyme activity, inhibitor, fluorogenic",,,IC50,> 30 µM
